Experimental data collected from several papers.
Numbered parts are unrelated; each lists some results of a single study. Substitutions count along the parent as printed.

Sample 1 — method: DHFR PCA, deep sequencing; matrix: yeast; together with: (+)-ABA 1.4 µM; relative to: wild-type fitted maximum; reading: higher = stronger binding; quantity: relative binding score
Target: ABI1, truncated, D143A, DHFR fusion (Arabidopsis thaliana)
Setting: methotrexate growth selection, single substitutions
Starting sequence: PYL1, truncated, DHFR fusion (Arabidopsis thaliana); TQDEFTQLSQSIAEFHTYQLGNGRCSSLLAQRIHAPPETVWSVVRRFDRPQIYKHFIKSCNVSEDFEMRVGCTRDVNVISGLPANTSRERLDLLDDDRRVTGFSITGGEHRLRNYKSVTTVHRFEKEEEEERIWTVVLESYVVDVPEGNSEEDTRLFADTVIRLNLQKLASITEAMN; partner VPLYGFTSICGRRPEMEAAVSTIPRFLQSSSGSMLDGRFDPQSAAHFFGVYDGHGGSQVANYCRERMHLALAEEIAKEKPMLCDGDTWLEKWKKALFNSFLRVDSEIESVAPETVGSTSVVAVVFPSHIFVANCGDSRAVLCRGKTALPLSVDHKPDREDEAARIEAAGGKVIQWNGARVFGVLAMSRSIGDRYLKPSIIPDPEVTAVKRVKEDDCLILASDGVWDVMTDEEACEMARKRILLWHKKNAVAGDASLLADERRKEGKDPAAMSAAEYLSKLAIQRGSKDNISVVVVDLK
Substitution = L28G; result = 11.7%
Substitution = S150L; result = -2.43%
Substitution = I133C; result = 74.6%
Substitution = T73P; result = -4.82%
Substitution = D144R; result = -12.2%
Substitution = V100M; result = 20.3%
Substitution = G108F; result = -9.84%
Substitution = T160M; result = 27.5%

Sample 2 — method: two-hybrid; relative to: out of 4 tests; reading: higher = firmer interaction; quantity: positive tests
Partner: ARF11 500-622 (Arabidopsis thaliana, UniProt Q9ZPY6)
B1: IAA32 (Arabidopsis thaliana, UniProt Q8RYC6); chain MDPNTPADFFKGSSKFHTYYSQTKKGGGVIDLGLSLRTIQHETYLPPARMIGLDGYGELIDWSQPSYNSITQLKSEDTGHQRLAQGYYNNEGESRGKYAYVKVNLDGLVVGRKVCLVDQGAYATLALQLNDMFGMQTVSGLRLFQTESEFSLVYRDREGIWRNVGDVPWKEFVESVDRMRIARRNDALLPF
B2: ARF10 575-693 (Arabidopsis thaliana, UniProt Q9SKN5); chain LQGLETGHCKVFMESEDVGRTLDLSVIGSYQELYRKLAEMFHIEERSDLLTHVVYRDANGVIKRIGDEPFSDFMKATKRLTIKMDIGGDNVRKTWITGIRTGENGIDASTKTGPLSIFA
B3: IAA28 (Arabidopsis thaliana, UniProt Q9XFM0); chain MEEEKRLELRLAPPCHQFTSNNNINGSKQKSSTKETSFLSNNRVEVAPVVGWPPVRSSRRNLTAQLKEEMKKKESDEEKELYVKINMEGVPIGRKVNLSAYNNYQQLSHAVDQLFSKKDSWDLNRQYTLVYEDTEGDKVLVGDVPWEMFVSTVKRLHVLKTSHAFSLSPRKHGKE
B4: ARF1 538-665 (Arabidopsis thaliana, UniProt Q8L7G0); chain SRQIRSCTKVHMQGSAVGRAIDLTRSECYEDLFKKLEEMFDIKGELLESTKKWQVVYTDDEDDMMMVGDDPWNEFCGMVRKIFIYTPEEVKKLSPKNKLAVNARMQLKADAEENGNTEGRSSSMAGSR
B5: ARF2 727-859 (Arabidopsis thaliana, UniProt Q94JM3); chain TKTNSSRSCTKVHKQGIALGRSVDLSKFQNYEELVAELDRLFEFNGELMAPKKDWLIVYTDEENDMMLVGDDPWQEFCCMVRKIFIYTKEEVRKMNPGTLSCRSEEEAVVGEGSDAKDAKSASNPSLSSAGNS
Residues (chain): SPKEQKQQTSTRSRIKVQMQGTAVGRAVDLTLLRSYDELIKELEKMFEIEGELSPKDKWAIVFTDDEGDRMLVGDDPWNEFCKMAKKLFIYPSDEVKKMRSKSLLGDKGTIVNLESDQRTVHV
Molecule = B1 (IAA32); result = 0
Molecule = B2 (ARF10 575-693); result = 0
Molecule = B3 (IAA28); result = 0
Molecule = B4 (ARF1 538-665); result = 0
Molecule = B5 (ARF2 727-859); result = 0

Sample 3 — method: DNA-protein interaction ELISA; form: double-stranded DNA, one strand shown; matrix: in vitro, bacterial lysate; concentration: not given; setting: whole dsDNA probe, crude lysate protein; relative to: highest signal in screen; reading: higher = stronger binding; quantity: relative absorbance
Target: Probable WRKY transcription factor 11, DNA-binding domain (WRKY11, Arabidopsis thaliana, UniProt Q9SV15, residues 228-325)
Target sequence (chain): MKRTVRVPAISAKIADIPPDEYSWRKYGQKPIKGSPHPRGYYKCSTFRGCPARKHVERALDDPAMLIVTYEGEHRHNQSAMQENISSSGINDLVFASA
Strand = AAAAAACGTTAACACTGATTTAGGGTAAAA; result = 15.6 % of maximum
Strand = AAAAAAACGCTATATATTGGTGCTAGAAAA; result = 17.3 % of maximum
Strand = AAAAAACTGACCGTCAGCGCCCACGCAAAA; result = 33.1 % of maximum
Strand = AAAAAAATGATTGCCAATGCTCGCAAAAAA; result = 17.9 % of maximum
Strand = AAAAAAGGCTGTGGCCAATGTTCGTAAAAA; result = 14.7 % of maximum
Strand = AAAAAATGTCGGCTGTTAGGATATCGAAAA; result = 17 % of maximum
Strand = AAAAAACCAGCCTCAGTCCTGAACAAAAAA; result = 16.1 % of maximum
Strand = AAAAAATTCAAAATGATCACTACGGGAAAA; result = 14.1 % of maximum

Mixed results — starting sequence: viral docking peptide; KGVKRKLFAEDSS
Substitution = KGVKRHLFAEDSS [K6H]; target = CCNA1, cyclin fold, Cln2 fusion (human); test = yeast growth competition, sequencing; system = yeast; conditions = weak parent motif; scale = relative to: not given, higher = stronger binding; quantity = normalised enrichment score; result = 0.0464
